Published values collected from several papers.
Each line is one published result; not all experiments were run side by side. “And” joins repeats or separate records; there may be more than shown. ± marks the error that the study gave.

`NCC(=O)Nc1cncc(-c2nn3c(=O)cc(N4CCNCC4)nc3s2)c1`: “inhibition of platelet aggregation” 42.7% (ADP-induced platelet aggregation, light transmission aggregometry; stable CAD patients on aspirin; subcutaneous, 0.04 mg/kg, 30 min post-dose, with: ADP 20 µM; reference: placebo).
The metabolite level of `C[C@@H](O)CCOC(=O)C[C@@H](C)O` is reported as -3.43 ± 0.32 µmol/L (measured: C16 acylcarnitine; human, plasma; 60 min, log2-transformed values).
`Cc1cc(C)c(CNC(=O)c2cc(Cl)c3c(c2C)O[C@@](C)([C@H]2CC[C@H](N(C)C)CC2)O3)c(=O)[nH]1`: “best overall response PD” 31% (IWG 2007 criteria; human, relapsed/refractory PTCL not otherwise specified; dose not given).
`CN[C@@H]1COc2c(S(=O)(=O)NC(=O)Nc3c4c(cc5c3CCC5)CCC4)cnn2C1` gave an inhibition of -45.5% (measured: IL-1β; human participants, whole blood ex vivo; 450 mg single dose, 48 h, with: LPS/ATP; reference: baseline).
Under “log2 fold change”, `c1ccc(-c2n[nH]cc2-c2ccnc3ccccc23)nc1` is recorded as 1.16 (kinase binding, competitor, MIB/MS competition, measured: HSL1; Candida albicans cell lysate; 100 nM; reference: DMSO).
`COc1cc(F)c([C@@H]2CNC(=O)[C@H]2NC(=O)Nc2ccccc2)c(F)c1`: “left ventricular systolic pressure” 119 ± 9 mmHg (terminal haemodynamics; rat, permanent coronary occlusion MI; 1 mg/kg, 1008 h, 6 weeks post-MI).
`Cc1cc(F)cc2c(CCC(=O)N[C@@H]3C(=O)NC[C@H]3O)c(-c3ccc(F)cc3)[nH]c12` has a UACR of 30400 µg/mg and 2140 µg/mg and 8740 µg/mg and 2810 µg/mg and 1180 µg/mg and 1440 µg/mg (mice, APOL1 G2, single copy; oral, 30 mg/kg twice daily, day 6, with: IFNγ plasmid injection).
For `[Cl-].[Cl-].[Pt+2].[Ru+2].c1ccc(-c2nc3cc4ccccc4cc3nc2-c2ccccn2)nc1.c1cnc2c(c1)ccc1cccnc12.c1cnc2c(c1)ccc1cccnc12`, “nicked circular DNA” read 17.1% (photoinduced DNA cleavage; supercoiled pcDNA; 250 µM, 0.1 µM pcDNA).
The mRNA level of `COc1cc(/C=C/C(=O)N2CCC=CC2=O)cc(OC)c1OC` is reported as 0.794 (quantitative RT-PCR, measured: cyclin D1, normalised to beta-actin; nude mouse, MDA-MB-468 xenograft, tumour; 15 mg/kg, 21 days, unit not given; reference: DMSO).
For `CC(=O)Oc1cc2c(s1)CCN(C(C(=O)C1CC1)c1ccccc1F)C2` (centres unmarked), “patients with IPA above 80%” read 9.5% (platelet aggregation, light transmission aggregometry; human patients, platelet-rich plasma; 3 h, with: TRAP 5 µM).
`Cc1noc(NS(=O)(=O)c2ccc(N=NN(O)c3ccccc3)cc2)c1C` — result for “paw edema volume”: 5.7 ± 0.81 a.u. (carrageenan-induced paw edema; Wistar rat; oral, 100 mg/kg, 2 h after carrageenan, with: carrageenan 1% subplantar; higher = more edema).
`CC1(C)CCC2(CC1)N[C@@H](C(=O)N[C@@H]1CC[C@@H](C(N)=O)OC1)[C@H](c1ccnc(Cl)c1F)[C@]21C(=O)Nc2cc(Cl)ccc21` gave a stable disease of 43.8% (RECIST; patients with solid tumours; dose not given; reference: patients).
Under “paw edema volume”, `CCCN(O)N=Nc1ccc(S(=O)(=O)Nc2onc(C)c2C)cc1` is recorded as 5.88 ± 0.36 a.u. (carrageenan-induced paw edema; Wistar rat; oral, 100 mg/kg, 2 h after carrageenan, with: carrageenan 1% subplantar; higher = more edema).
`Cc1cn(-c2ccc3n(c2=O)CCN([C@@H](C)[C@@H]2CC[C@H](c4cc(F)c(Cl)cc4C(F)(F)F)O2)C3=O)cn1`: “CSF Aβ37 increase” 372% (human, CSF; 360 mg once daily, 14 days, multiple dose, single LP; reference: placebo).
With `O=C(O)CNC(=O)Cc1ccccc1` the sarcomere length was 1.72 µm (ventricular cardiomyocytes, C57BL/6 mouse; dose not given, 0.104 s).
`NC(=O)c1cnc2[nH]ccc2c1N[C@@H]1[C@@H]2CC3C[C@H]1C[C@@](O)(C3)C2`: “change from baseline” -1.2% (flow cytometry, measured: regulatory T cells; Japanese healthy subjects, peripheral blood; oral, 10 mg twice daily, day 7).
`COc1ccc(C2=N[C@@H](c3ccc(Cl)cc3)[C@@H](c3ccc(Cl)cc3)N2C(=O)N2CCNC(=O)C2)c(OC(C)C)c1` — result for “centrally nucleated fibres”: 83% and 91% and 86% and 78% and 92% (histology; Dmd C3333Y mice, quadriceps; dose not given).
`COc1nc(NCc2cn(-c3ccc(C(=O)Nc4ccc(C(F)(F)F)cc4)cc3)nn2)nc(OC)n1` gave an IC50 of 76.7 ± 3.02 nM (cell viability, MTT; normal colonocytes, rat; 72 h).
`CCCN(O)N=Nc1ccc(S(=O)(=O)Nc2nccs2)cc1`: “paw edema volume” 3.6 ± 0.8 a.u. (carrageenan-induced paw edema; Wistar rat; oral, 100 mg/kg, 0 h (baseline), with: carrageenan 1% subplantar; higher = more edema).
For `NC/C(=C\F)COc1cccc(Cn2c(=S)[nH]c(=O)c3[nH]cnc32)c1`, “total white blood cell count” read 1.8e+07 and 4.2e+07 and 1.9e+07 and 1e+07 and 4.4e+07 and 4.8e+07 and 2.8e+07 and 6e+07 (mouse, carrageenan air pouch, air pouch exudate; 10 mg/kg, 12 h).
For `O=C(COc1ccc(Cl)cc1)NC12CC(c3nnc([C@H]4C[C@@H](OC(F)(F)F)C4)o3)(C1)C2`, “ATF4 protein change” read -45.8% (healthy human, PBMC; oral, 200 mg single dose, day 2, 24 h post-dose, median, with: sodium arsenite ex vivo; reference: baseline).
Under “paw edema volume”, `CCN(O)N=Nc1ccc(S(=O)(=O)Nc2onc(C)c2C)cc1` is recorded as 6.11 ± 0.84 a.u. (carrageenan-induced paw edema; Wistar rat; oral, 100 mg/kg, 2 h after carrageenan, with: carrageenan 1% subplantar; higher = more edema).
`Cc1nn(-c2nc3c(F)cc(F)cc3s2)c(O)c1C(c1ccc(C(F)(F)F)cc1)c1c(C)nn(-c2nc3c(F)cc(F)cc3s2)c1O` — result for “total histology score”: 0.333 and 2.33 and 4 and 1.67 and 2 (mouse, cerulein-induced acute pancreatitis; 25 mg/kg; direction not given).
`CC1(C)CCC(c2ccc(Cl)cc2)=C(CN2CCN(c3ccc(C(=O)NS(=O)(=O)c4ccc(N[C@H](CCN5CCOCC5)CSc5ccccc5)c(S(=O)(=O)C(F)(F)F)c4)cc3)CC2)C1` gave an EC50 of 236 nM (cell kill, PI exclusion flow cytometry; normal CD3+ T lymphocytes, human, peripheral blood; 24 h).
For `COc1ccccc1[C@H](Cn1c(=O)n(C(C)(C)C(=O)O)c(=O)c2c(C)c(-c3ncco3)sc21)OC1CCOCC1`, “blood HDL level” read 37.2 ± 5.04 mg/dL (human; 20 mg, post-treatment).
`C[C@H](Oc1ccc(Br)cc1-c1ccon1)C(=O)O`: “difference from placebo” -0.207 ms (MVRC latency; human, tibialis anterior muscle; 100 mg, SAD).
`Cn1cc(Nc2nccc(-c3ccc4c(c3)CN(C3COC3)CC[C@H]4NC(=O)c3cn(C(C)(C)C)nn3)n2)cn1`: “pathway activation z-score” 2.67 (measured: Glioblastoma Multiforme Signaling; splenic B cells, mouse; in vivo, 30 mg/kg, IgD-activated B cells; reference: vehicle, positive = activation).
`CC(C)NCC(O)c1ccc(O)c(O)c1` (centres unmarked) gave a sarcomere length of 1.5 µm (ventricular cardiomyocytes, C57BL/6 mouse; dose not given, 0.844 s).
`Nc1ccc(O)c(C(=O)O)c1` gave a colon length of 5.94 cm (mice, DSS-induced acute colitis; oral, dose not given, day 15).
`CCN(O)N=Nc1ccc(S(=O)(=O)Nc2cc(C)on2)cc1` — result for “paw edema volume”: 4.57 ± 0.52 a.u. (carrageenan-induced paw edema; Wistar rat; oral, 100 mg/kg, 3 h after carrageenan, with: carrageenan 1% subplantar; higher = more edema).
`OC(CCN1CCCCC1)(c1ccccc1)C1CC2C=CC1C2` (centres unmarked) — result for “gamma power, EEG, Pz-O1”: 0.9 µV² (resting-state EEG; healthy elderly humans; oral, 2 mg, eyes closed, LS mean).
`Cc1cc(NS(=O)(=O)c2ccc(N=NN(O)c3ccccc3)cc2)no1` — result for “paw edema volume”: 4.21 ± 0.8 a.u. (carrageenan-induced paw edema; Wistar rat; oral, 100 mg/kg, 4 h after carrageenan, with: carrageenan 1% subplantar; higher = more edema).
Under “stable disease as best response”, `COc1cc2cc(-c3ccc(CC(=O)Nc4cc(C(C)(C)C(F)(F)F)no4)cn3)cnc2cc1OC` is recorded as 0% (RECIST v1.1; RET-altered advanced solid tumour patients; oral, 20 mg once daily, phase I).
`Cc1n[nH]c2ccc(-c3cc(OC[C@@H](N)Cc4ccccc4)cnc3-c3ccoc3)cc12`: “log2 fold change” -0.524 (kinase binding, competitor, MIB/MS competition, measured: ATG1; Candida albicans cell lysate; 10 µM; reference: DMSO).
`O=C(OC(C(F)(F)F)C(F)(F)F)N1CCN(Cc2cccc(Oc3ccccc3)c2)CC1` — result for “tracer distribution volume”: 1.56 mL/cm3 (PET; rhesus monkey, frontal cortex; intravenous, 0.3 mg/kg, pretreatment blocking, with: [18F]T-401).
With `COc1ccc(-c2cncc(N[C@@H](C)c3cccc(NC(=O)c4cncc(C)c4)c3)n2)cc1OC` the fold change was 1 (measured: rno-miR-193-3p; rat SU5416/hypoxia model, lung; dose not given; reference: SU5416/hypoxia vehicle).
For `N#Cc1ccn2c(-c3ccncc3)c(-c3ccc(F)cc3)nc2c1`, “log2 fold change” read -0.128 (kinase binding, competitor, MIB/MS competition, measured: GIN4; Candida albicans cell lysate; 100 nM; reference: DMSO).
`Cc1noc(C)c1-c1ccc2nc(-c3cnn(CC(C)(C)O)c3)nc(N3CCOC[C@@H]3c3ccccc3)c2c1`: cytokine production “decreased” (measured: TNFα, MCP-1, IP-10, IL-6, IL-2, IL-1β; mouse collagen-induced arthritis, right rear paw; dose not given; reference: vehicle).

A few entries again:
`CN[C@@H]1COc2c(S(=O)(=O)NC(=O)Nc3c4c(cc5c3CCC5)CCC4)cnn2C1` gave an inhibition of -45.5% (measured: IL-1β; human participants, whole blood ex vivo; 450 mg single dose, 48 h, with: LPS/ATP; reference: baseline).
Under “log2 fold change”, `c1ccc(-c2n[nH]cc2-c2ccnc3ccccc23)nc1` is recorded as 1.16 (kinase binding, competitor, MIB/MS competition, measured: HSL1; Candida albicans cell lysate; 100 nM; reference: DMSO).
`COc1cc(F)c([C@@H]2CNC(=O)[C@H]2NC(=O)Nc2ccccc2)c(F)c1`: “left ventricular systolic pressure” 119 ± 9 mmHg (terminal haemodynamics; rat, permanent coronary occlusion MI; 1 mg/kg, 1008 h, 6 weeks post-MI).
`Cc1cc(F)cc2c(CCC(=O)N[C@@H]3C(=O)NC[C@H]3O)c(-c3ccc(F)cc3)[nH]c12` has a UACR of 30400 µg/mg and 2140 µg/mg and 8740 µg/mg and 2810 µg/mg and 1180 µg/mg and 1440 µg/mg (mice, APOL1 G2, single copy; oral, 30 mg/kg twice daily, day 6, with: IFNγ plasmid injection).
